Results pooled from the literature.
Each line is one published result; not all experiments were run side by side. ± gives the spread as reported.
U2AF2: U2AF2 148-342 (Homo sapiens, UniProt P26368)
Chain of UniProt P26368 (whole entry, looked up): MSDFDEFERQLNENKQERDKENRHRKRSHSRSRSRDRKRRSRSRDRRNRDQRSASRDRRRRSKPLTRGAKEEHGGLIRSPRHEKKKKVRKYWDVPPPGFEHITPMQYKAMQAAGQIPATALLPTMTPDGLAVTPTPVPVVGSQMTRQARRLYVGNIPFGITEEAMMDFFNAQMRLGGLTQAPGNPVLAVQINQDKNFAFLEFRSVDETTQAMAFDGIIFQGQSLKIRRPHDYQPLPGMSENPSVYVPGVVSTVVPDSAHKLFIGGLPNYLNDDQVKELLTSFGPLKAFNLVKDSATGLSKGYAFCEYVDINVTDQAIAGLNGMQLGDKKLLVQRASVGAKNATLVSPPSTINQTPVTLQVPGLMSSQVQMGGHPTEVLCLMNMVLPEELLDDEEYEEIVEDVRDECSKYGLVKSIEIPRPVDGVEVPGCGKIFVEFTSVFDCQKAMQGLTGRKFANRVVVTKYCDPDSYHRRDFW
Chain of UniProt Q9UER7 (whole entry, looked up): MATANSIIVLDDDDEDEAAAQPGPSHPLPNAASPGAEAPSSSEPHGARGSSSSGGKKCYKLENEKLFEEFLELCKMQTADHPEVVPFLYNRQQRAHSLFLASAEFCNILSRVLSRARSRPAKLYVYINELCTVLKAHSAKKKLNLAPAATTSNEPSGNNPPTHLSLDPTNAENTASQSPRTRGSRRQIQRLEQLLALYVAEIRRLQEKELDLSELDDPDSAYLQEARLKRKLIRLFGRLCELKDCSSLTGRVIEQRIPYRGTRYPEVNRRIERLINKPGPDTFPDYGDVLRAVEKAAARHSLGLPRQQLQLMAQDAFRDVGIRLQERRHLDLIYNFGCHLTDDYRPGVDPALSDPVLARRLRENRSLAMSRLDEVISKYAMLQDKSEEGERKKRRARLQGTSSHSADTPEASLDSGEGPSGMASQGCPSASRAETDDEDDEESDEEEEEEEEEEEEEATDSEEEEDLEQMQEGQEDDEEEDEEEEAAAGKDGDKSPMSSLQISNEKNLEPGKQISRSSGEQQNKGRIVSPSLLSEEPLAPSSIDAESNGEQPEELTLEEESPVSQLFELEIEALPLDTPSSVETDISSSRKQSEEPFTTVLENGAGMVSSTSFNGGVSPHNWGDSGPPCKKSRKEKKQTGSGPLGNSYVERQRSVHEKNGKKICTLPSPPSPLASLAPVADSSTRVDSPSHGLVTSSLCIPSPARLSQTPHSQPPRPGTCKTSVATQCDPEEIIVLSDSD
Chain of UniProt O00571 (whole entry, looked up): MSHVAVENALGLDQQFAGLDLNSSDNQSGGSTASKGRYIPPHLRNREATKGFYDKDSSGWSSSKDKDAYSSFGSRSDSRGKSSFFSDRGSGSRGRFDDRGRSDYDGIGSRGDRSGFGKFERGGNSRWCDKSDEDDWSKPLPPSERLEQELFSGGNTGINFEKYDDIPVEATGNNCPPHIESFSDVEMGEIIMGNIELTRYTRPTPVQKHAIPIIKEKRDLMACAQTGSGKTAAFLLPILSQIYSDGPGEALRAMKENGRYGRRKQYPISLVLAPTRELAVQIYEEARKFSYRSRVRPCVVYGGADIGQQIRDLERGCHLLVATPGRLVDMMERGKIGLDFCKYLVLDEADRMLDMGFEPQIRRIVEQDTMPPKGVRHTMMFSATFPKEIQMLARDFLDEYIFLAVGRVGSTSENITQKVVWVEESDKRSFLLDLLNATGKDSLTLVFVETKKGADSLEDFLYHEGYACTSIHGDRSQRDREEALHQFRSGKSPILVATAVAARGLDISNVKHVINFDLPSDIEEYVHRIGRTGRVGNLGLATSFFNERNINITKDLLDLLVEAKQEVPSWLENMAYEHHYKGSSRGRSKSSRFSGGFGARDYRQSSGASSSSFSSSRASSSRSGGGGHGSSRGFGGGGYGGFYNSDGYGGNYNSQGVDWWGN
Chain of UniProt P41164 (whole entry, looked up): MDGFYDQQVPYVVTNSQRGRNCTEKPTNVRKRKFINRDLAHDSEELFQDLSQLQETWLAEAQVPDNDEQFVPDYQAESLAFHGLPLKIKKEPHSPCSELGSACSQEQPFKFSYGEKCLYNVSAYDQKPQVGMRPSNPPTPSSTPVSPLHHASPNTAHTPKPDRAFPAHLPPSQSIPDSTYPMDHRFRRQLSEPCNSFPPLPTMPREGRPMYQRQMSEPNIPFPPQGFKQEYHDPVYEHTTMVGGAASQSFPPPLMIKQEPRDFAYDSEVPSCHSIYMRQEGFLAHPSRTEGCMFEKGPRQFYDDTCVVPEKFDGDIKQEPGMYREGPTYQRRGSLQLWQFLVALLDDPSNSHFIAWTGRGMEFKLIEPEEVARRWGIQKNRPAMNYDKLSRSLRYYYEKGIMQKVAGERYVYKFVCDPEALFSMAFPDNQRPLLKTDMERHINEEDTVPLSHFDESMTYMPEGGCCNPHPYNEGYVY
Chain of UniProt Q9C5T4 (whole entry, looked up): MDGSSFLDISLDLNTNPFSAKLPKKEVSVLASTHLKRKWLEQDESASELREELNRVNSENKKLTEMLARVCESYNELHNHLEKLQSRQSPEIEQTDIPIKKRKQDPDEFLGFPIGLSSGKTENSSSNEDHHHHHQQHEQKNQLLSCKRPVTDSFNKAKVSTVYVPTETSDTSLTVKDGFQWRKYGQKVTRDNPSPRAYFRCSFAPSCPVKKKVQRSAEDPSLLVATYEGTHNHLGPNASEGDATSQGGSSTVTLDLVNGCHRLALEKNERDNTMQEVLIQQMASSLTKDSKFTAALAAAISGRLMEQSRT
Chain of UniProt P12959 (whole entry, looked up): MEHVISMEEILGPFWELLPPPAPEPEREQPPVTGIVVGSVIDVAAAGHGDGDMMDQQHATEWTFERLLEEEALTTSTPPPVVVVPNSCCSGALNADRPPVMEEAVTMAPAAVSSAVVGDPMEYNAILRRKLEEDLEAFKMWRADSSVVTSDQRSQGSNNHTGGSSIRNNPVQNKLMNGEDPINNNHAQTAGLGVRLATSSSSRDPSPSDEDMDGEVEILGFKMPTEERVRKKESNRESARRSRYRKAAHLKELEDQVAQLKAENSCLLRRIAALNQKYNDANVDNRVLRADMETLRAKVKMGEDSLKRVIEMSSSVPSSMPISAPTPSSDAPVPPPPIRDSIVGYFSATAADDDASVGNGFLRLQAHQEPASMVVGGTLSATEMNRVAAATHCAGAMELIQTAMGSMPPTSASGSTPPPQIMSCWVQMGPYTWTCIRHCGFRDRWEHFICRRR
Chain of UniProt P13393 (whole entry, looked up): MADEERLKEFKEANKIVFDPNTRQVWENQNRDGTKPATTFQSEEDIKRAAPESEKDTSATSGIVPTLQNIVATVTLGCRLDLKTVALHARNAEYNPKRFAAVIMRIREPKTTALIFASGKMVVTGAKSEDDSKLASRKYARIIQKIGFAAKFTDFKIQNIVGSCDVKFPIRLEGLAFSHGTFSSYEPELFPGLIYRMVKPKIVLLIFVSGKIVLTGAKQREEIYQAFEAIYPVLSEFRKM
Chain of UniProt P09104 (whole entry, looked up): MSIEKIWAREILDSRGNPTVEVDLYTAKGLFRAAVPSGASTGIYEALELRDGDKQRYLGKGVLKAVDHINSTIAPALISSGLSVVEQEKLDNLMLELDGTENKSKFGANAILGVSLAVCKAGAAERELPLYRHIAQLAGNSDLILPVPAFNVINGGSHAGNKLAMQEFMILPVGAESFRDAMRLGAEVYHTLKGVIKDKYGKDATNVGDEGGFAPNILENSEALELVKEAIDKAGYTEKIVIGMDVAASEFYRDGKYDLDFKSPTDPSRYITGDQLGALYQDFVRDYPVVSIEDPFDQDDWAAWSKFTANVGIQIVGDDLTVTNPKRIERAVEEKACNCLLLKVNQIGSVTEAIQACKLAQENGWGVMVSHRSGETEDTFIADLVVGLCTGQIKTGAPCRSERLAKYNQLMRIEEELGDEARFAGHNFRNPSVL
Chain of UniProt Q13118 (whole entry, looked up): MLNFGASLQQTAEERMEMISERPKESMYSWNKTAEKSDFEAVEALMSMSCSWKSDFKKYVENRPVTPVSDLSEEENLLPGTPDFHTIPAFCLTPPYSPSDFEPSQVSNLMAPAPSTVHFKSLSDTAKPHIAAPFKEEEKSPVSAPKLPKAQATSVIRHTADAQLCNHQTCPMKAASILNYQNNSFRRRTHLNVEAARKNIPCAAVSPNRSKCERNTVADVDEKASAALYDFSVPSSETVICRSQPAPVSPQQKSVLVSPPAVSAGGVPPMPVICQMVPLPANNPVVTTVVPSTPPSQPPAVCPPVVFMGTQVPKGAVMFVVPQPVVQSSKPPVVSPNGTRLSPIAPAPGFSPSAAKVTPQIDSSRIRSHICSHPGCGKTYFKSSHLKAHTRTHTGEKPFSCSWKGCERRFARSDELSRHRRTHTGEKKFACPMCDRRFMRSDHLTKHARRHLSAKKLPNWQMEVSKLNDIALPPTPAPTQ

Under binding, `GCAGTGAAAAGGGGGTGTGTCAGGATGC (dsDNA)` is recorded as “binds” (KLF10 full length assumed (Homo sapiens, UniProt Q13118); EMSA; double-stranded DNA, one strand shown).
`UACAACUUA (ssRNA)` gave a Kd of 1400 nM (U2AF2; sequencing of bound RNA; RNA; motif only).
For `GACTGACTGATAGATCCTAAGTACTGATTACTGACTATAGATCTAAGTCATGATCAGTTA (dsDNA)`, binding read “no binding” (DAXX full length assumed (Homo sapiens, UniProt Q9UER7); EMSA; double-stranded DNA, one strand shown; 50-500 nM DAXX, 50 nM probe).
For `AGCGTAGCACTGGGCT (dsDNA)`, binding read “no binding” (protein full length assumed E367A (Bacillus pumilus, UniProt A3FMN7); EMSA; double-stranded DNA, one strand shown).
`DNA 1 ATACCAGCTTATTCAATT / DNA 2 ATTGCTCCTCAGCAATTGAATAAGCT (dsDNA; 13 bp duplex, 5' overhangs, 5'-NH2)` — result for binding: “no binding” (ENO2 2-434 (Homo sapiens, UniProt P09104); magnetic bead strand displacement; double-stranded DNA).
`GGGUGGAUUUCUCAUGAA (ssRNA)` has a Kd of 8600 ± 4500 nM (U2AF2; ITC; RNA).
`CCCGCCCCGCACTAGGACCCCTGCAGATGATCAGGTCAAGTCAATCGGTCC (dsDNA; 5'-amino-C6 primer)` gave a Kd of 32.5 ± 11.1 nM (SPT15 full length assumed (Saccharomyces cerevisiae, UniProt P13393); array; double-stranded DNA, one strand shown; TBP alone).
`CAGTAATCAACCGGAAGTTATAAAGCATGA (dsDNA)`: binding “binds” (Etv1 full length assumed (Mus musculus, UniProt P41164); EMSA; double-stranded DNA, one strand shown; not purified).
`RNA 1 GCGUCUUUACGGUGCUUAAAACAAAACAAAACAAAACAAAA / RNA 2 AGCACCGUAAAGACGC (dsRNA; 3' overhang)` — result for binding: “binds” (DDX3X 132-662 (Homo sapiens, UniProt O00571); mass photometry; double-stranded RNA).
Under binding, `TCTTGTATTTTAGGAATCTACCACAATTTTTTC (dsDNA (Drosophila melanogaster); blunt)` is recorded as “no binding” (sv (Drosophila melanogaster, UniProt Q59DN9); competition; double-stranded DNA, one strand shown).
For `GCTGTCACTTACTAACTGTCT (dsDNA)`, binding read “binds” (Auxin response factor 1-610 (Capsicum annuum, UniProt A0A1U8F1G4); MST; double-stranded DNA, one strand shown).
`CTGAAGTTTGGTCAAAATAATACGATGAATTTAATATATAAGAGACAAAATTGTTATTGTCGTTTAGGTGGTATCCATATTTCAATATAGTTTGTGTGAATACAGATATAAAAATGGTTATTGTTGTGTATATGATGCAGTTG (dsDNA)` — result for binding: “binds” (WRKY18 full length assumed (Arabidopsis thaliana, UniProt Q9C5T4); EMSA; double-stranded DNA, one strand shown).
For `TCGGTACCCGTGGATC (dsDNA)`, binding read “binds” (protein full length assumed (Bacillus pumilus, UniProt A3FMN7); EMSA; double-stranded DNA, one strand shown).
Under binding, `GTTTTGGAATGTTGCGTTGCATGACGTGGAAACATAGTACATGGATTTGGAT (dsDNA)` is recorded as “binds” (O2 full length assumed (Zea mays, UniProt P12959); EMSA; double-stranded DNA, one strand shown).

A few entries again:
Under binding, `GCAGTGAAAAGGGGGTGTGTCAGGATGC (dsDNA)` is recorded as “binds” (KLF10 full length assumed (Homo sapiens, UniProt Q13118); EMSA; double-stranded DNA, one strand shown).
`UACAACUUA (ssRNA)` gave a Kd of 1400 nM (U2AF2; sequencing of bound RNA; RNA; motif only).
